Experimental data collected from several papers.
Compare with care: the assays were run in different laboratories.
PIP4K2C: Phosphatidylinositol 5-phosphate 4-kinase type-2 gamma (PIP4K2C, Homo sapiens, UniProt Q8TBX8)
Sequence of UniProt Q8TBX8 (whole entry, looked up): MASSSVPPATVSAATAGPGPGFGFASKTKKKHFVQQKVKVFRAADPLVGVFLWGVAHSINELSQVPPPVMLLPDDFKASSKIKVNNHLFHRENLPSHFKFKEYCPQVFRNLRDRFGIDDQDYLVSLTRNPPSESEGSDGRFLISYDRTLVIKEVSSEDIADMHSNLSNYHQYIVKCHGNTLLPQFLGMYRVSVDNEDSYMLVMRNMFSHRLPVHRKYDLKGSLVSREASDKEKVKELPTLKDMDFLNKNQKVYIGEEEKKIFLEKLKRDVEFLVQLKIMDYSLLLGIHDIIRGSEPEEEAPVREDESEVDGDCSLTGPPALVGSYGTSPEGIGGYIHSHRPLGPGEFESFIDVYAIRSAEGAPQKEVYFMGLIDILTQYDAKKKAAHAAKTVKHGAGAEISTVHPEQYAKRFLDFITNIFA
CDK7 with cyclin H: Cyclin-dependent kinase 7, with cyclin H (CDK7, Homo sapiens, UniProt P50613)
Sequence of UniProt P50613 (whole entry, looked up): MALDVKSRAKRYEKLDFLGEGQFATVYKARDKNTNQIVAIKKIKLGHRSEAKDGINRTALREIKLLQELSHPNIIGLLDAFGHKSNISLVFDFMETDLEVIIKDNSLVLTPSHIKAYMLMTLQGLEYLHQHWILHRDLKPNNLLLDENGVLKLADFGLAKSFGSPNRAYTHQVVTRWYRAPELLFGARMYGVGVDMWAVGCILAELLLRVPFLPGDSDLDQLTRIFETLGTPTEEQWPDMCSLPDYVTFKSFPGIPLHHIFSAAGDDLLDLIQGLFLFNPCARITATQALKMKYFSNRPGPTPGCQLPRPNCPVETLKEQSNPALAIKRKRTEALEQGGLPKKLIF
NT5E: 5'-nucleotidase (NT5E, Homo sapiens, UniProt P21589)
Sequence of UniProt P21589 (whole entry, looked up): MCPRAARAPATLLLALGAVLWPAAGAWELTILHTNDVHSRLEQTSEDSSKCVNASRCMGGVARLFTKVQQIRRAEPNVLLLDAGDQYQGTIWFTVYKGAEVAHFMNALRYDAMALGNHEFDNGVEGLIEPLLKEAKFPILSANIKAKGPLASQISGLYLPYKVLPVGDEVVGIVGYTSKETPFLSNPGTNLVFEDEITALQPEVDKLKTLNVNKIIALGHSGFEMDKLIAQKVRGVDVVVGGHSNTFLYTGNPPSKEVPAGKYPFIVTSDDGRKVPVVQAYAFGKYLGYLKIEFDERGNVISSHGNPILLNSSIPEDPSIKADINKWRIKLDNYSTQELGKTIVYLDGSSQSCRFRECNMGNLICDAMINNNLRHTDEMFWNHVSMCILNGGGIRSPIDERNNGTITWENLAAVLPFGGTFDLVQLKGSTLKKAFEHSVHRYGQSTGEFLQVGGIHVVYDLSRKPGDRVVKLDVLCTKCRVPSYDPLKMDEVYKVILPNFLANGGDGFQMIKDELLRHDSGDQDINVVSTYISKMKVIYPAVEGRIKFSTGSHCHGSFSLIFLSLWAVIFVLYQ
rep main protease: Replicase polyprotein 1ab, main protease (rep, Porcine epidemic diarrhea virus, UniProt P0C6Y4)
AMY2: Pancreatic alpha-amylase (AMY2, Sus scrofa, UniProt P00690)
Sequence of UniProt P00690 (whole entry, looked up): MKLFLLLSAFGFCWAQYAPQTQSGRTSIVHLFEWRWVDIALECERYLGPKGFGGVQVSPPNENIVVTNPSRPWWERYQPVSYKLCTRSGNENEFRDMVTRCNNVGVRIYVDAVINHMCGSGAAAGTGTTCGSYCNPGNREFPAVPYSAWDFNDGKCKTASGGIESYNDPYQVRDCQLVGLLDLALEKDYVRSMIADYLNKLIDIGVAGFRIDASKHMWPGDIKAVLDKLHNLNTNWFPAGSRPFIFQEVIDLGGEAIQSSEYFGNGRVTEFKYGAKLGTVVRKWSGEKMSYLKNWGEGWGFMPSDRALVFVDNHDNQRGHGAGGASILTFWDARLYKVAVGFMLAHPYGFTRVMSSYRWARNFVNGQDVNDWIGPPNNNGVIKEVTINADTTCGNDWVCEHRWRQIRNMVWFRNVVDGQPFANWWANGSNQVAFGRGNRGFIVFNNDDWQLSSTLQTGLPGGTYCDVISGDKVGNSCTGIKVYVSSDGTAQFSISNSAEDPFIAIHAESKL
rep papain-like protease: Replicase polyprotein 1ab, papain-like protease (rep, Porcine epidemic diarrhea virus, UniProt P0C6Y4)
Sequence of UniProt P11802 (whole entry, looked up): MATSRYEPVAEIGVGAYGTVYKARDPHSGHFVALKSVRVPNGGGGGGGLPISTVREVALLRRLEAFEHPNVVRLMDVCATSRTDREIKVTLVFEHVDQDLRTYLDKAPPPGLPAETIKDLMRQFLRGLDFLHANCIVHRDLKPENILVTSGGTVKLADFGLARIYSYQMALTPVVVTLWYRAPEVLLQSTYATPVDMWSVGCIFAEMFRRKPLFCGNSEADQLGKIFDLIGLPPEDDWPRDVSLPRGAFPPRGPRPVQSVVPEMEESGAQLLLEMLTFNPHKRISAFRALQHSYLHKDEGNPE
Sequence of UniProt P23975 (whole entry, looked up): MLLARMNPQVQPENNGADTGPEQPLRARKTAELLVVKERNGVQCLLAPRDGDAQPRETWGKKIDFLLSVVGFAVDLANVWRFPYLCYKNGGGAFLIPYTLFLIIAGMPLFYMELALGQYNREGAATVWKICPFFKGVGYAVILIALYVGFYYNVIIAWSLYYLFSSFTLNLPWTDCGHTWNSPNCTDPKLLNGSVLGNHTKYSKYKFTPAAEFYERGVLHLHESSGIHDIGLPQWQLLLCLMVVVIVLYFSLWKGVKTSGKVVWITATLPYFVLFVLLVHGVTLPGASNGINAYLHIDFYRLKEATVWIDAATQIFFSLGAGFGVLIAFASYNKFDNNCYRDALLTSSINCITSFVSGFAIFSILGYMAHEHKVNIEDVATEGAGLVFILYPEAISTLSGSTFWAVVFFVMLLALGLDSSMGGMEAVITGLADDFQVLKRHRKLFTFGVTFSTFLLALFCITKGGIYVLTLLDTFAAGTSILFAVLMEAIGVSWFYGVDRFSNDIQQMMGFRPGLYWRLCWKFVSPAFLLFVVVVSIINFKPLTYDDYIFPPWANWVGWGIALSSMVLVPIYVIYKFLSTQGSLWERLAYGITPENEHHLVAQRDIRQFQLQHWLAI
Sequence of UniProt Q5TCX8 (whole entry, looked up): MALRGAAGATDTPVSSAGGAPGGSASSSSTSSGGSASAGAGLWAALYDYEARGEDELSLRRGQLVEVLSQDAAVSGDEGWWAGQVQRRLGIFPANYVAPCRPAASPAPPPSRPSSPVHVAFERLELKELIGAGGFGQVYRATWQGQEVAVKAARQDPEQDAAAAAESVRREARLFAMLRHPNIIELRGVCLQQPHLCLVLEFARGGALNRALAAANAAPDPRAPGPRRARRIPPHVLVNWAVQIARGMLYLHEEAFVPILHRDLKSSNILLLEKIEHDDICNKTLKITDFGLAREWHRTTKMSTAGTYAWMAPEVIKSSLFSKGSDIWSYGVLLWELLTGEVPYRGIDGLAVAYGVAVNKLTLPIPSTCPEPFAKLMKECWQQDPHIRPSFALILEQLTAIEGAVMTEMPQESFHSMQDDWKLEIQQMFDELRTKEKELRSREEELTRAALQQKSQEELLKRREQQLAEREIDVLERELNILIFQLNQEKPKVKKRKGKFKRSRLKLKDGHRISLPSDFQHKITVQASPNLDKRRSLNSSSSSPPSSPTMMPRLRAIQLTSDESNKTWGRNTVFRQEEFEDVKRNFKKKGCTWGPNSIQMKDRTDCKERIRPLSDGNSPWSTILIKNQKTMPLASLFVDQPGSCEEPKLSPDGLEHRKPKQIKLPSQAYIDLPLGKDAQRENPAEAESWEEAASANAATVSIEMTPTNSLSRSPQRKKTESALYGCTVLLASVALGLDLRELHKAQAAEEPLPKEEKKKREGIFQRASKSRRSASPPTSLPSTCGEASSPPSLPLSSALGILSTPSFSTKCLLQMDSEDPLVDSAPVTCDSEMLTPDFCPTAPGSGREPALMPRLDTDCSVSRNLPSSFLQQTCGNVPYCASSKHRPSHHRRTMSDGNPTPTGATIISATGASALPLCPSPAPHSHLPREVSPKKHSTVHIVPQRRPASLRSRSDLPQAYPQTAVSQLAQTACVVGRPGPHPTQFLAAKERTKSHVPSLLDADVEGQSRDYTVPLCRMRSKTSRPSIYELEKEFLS
Sequence of UniProt Q00535 (whole entry, looked up): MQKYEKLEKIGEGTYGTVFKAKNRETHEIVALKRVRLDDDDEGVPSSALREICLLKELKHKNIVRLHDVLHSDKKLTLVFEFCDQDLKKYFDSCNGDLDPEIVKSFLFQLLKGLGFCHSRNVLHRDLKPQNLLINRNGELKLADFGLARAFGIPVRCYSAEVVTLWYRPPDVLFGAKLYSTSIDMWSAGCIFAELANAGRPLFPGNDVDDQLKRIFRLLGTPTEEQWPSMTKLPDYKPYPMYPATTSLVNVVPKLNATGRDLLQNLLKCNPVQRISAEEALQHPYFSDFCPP
Sequence of UniProt P27338 (whole entry, looked up): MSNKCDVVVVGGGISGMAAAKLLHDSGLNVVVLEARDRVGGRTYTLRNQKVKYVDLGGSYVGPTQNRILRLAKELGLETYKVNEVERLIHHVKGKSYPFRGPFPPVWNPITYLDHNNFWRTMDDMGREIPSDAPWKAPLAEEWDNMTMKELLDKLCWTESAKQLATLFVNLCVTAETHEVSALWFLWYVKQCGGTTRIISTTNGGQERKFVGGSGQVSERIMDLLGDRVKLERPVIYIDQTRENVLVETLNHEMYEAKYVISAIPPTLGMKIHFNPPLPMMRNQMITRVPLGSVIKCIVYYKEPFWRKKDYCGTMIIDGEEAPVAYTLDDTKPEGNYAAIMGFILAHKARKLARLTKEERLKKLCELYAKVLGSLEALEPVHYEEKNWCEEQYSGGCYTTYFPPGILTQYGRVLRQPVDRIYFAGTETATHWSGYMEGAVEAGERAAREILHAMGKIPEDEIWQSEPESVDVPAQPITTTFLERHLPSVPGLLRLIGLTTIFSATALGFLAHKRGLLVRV
Sequence of UniProt P30518 (whole entry, looked up): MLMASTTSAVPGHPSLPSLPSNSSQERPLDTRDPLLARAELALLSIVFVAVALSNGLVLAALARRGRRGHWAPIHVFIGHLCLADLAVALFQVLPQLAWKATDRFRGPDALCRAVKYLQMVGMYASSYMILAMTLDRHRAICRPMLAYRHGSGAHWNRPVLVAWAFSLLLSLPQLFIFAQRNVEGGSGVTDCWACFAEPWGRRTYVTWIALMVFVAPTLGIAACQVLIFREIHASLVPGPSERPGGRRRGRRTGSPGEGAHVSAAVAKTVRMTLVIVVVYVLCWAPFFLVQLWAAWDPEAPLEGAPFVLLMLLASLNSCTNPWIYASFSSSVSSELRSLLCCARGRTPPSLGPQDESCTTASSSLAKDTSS

| SMILES | target or system | assay | conditions | quantity | result |
| --- | --- | --- | --- | --- | --- |
| CN1CC(Oc2cnc(C#N)cc2-c2ccn3nc(NC(=O)C4CC4)cc3c2)C1 | RPS6KB1 (Homo sapiens, UniProt P23443) | enzyme activity, inhibitor | 1 µM | inhibition | 3% |
| CC[C@H](C)[C@H](NC(=O)[C@H](CCC(N)=O)NC(=O)[C@@H](NC(=O)[C@H](CCSC)NC(=O)[C@H](CCCCN)NC(=O)[C@H](CO)NC(=O)[C@@H](NC(=O)[C@H](CCSC)NC(=O)[C@H](CC(C)C)NC(=O)[C@H](CC(N)=O)NC(=O)[C@@H](NC(=O)[C@@H](NC(=O)[C@H](CO)NC(=O)[C@H](CC(C)C)NC(=O)[C@H](C)NC(=O)[C@H](CCCNC(=N)N)NC(=O)[C@H](CCC(=O)O)NC(=O)[C@H](Cc1ccc(O)cc1)NC(=O)[C@H](Cc1ccccc1)NC(=O)[C@H](C)NC(=O)[C@H](CC(N)=O)NC(=O)[C@@H](N)CCCCN)[C@@H](C)CC)[C@@H](C)CC)[C@@H](C)O)C(C)C)C(=O)N[C@@H](CC(N)=O)C(=O)N[C@H](C(=O)O)C(C)C | Cyclin-dependent kinase 5, with p25 (CDK5, Homo sapiens, UniProt Q00535) | enzyme activity, inhibitor, radiometric | 500 µM | inhibition | 85% |
| CCCC(=O)Nc1ccc(-c2ccc3ncn(Cc4ccccc4)c(=O)c3c2)cn1 | PIP4K2C | binding, competition with immobilised ligand | 0.5 µM | inhibition | 65.6% |
| O=c1c(O)c(-c2ccc(O)cc2)oc2cc(O)cc(O)c12 | CDK7 with cyclin H | enzyme activity, inhibitor, ADP detection | 10 µM | inhibition | 32.2% |
| Nc1c(C(=O)Nc2ccon2)sc2nc(-c3ccccc3)cc(C(F)(F)F)c12 | NT5E | enzyme activity, inhibitor | 10 µM | inhibition | 62% |
| COc1c2occc2c(OC)c2c(=O)cc(C)oc12 | CDK7 with cyclin H | enzyme activity, inhibitor, ADP detection | 10 µM | inhibition | 10.5% |
| C=CC(=O)N1CCC(COCC(=O)N2CCN(c3nc(-c4cnc(N)nc4C(F)F)nc(N4CCOC[C@@H]4C)n3)CC2)CC1 | FLT3 (Homo sapiens, UniProt P36888, D835Y) | binding, competition with immobilised ligand | 1 µM | remaining binding | 87% |
| CCN1/C(=C/C(C)=O)Sc2ccc(F)cc21 | AVPR2 (Homo sapiens, UniProt P30518) | ligand displacement, radioligand | 10 µM | inhibition | 3.2% |
| NS(=O)(=O)c1cc(C(=O)OCc2csc(CC(=O)Nc3ccccc3)n2)ccc1Cl | CA9 (Homo sapiens, UniProt Q16790) | enzyme activity, inhibitor | – | IC50 | 144 nM |
| NC/C(=C\F)COc1cccc(Cn2c(=S)[nH]c(=O)c3[nH]cnc32)c1 | AOC1 (Homo sapiens, UniProt P19801) | enzyme activity, inhibitor | 4.1 nM | inhibition | 1.86% |
| Cc1cc([C@@H](C)Nc2ccccc2C(=O)O)c2nc(N3CCC(F)(F)CC3)c(C#N)c(=O)n2c1 | ERBB2 (Homo sapiens, UniProt P04626) | binding, competition with immobilised ligand | 1 µM | remaining binding | 100% |
| CC(=O)Oc1cccc(C(=O)NCc2cc(O)c(O)c(Br)c2)c1C | rep main protease | enzyme activity, inhibitor, FRET | 10 µM | inhibition | 83% |
| Cc1cc(O)c(-c2ccc([C@@H](C)CN(C)C)cc2)c2c1[nH]c(=O)c1sccc12 | MAP3K21 (Homo sapiens, UniProt Q5TCX8) | enzyme activity, inhibitor | 0.1 µM | inhibition | -13.4% |
| O=S(=O)(Nc1nccs1)c1ccc(N=NN(O)c2ccccc2)cc1 | AMY2 | enzyme activity, inhibitor | 240 µg/mL | inhibition | 63.2% |
| C=C[C@@]1(C)C=C2CC[C@@H]3[C@](C)(CCC[C@@]3(C)C(=O)O)[C@H]2CC1 | Helicobacter pylori | microbial growth, broth dilution | 31.25 µg/mL | inhibition | 100% |
| Cc1noc(NS(=O)(=O)c2ccc(N=NN(O)c3ccccc3)cc2)c1C | AMY2 | enzyme activity, inhibitor | 180 µg/mL | inhibition | 52.6% |
| COc1cc(CNC(=O)c2ccco2)cc(Br)c1OC | rep papain-like protease | enzyme activity, inhibitor, FRET | 10 µM | inhibition | 7.88% |
| O=C(C=Cc1ccccc1)Nc1ccc(Oc2nnc(-c3ccc(Cl)cc3)c3ccccc23)cc1 | HepG2 | cell growth or viability, MTT | 5 µM | cell death | 97.5% |
| O=c1cc(-c2ccccc2)oc2cc(O)c(O)c(O)c12 | AMY2 | enzyme activity, inhibitor | 50 µM, 30 min | inhibition | 63.8% |
| CCOc1nc2cccc(C(=O)O)c2n1Cc1ccc(-c2ccccc2-c2nnn[nH]2)cc1 | SLC22A11 (Homo sapiens, UniProt Q9NSA0) | transporter uptake, inhibitor | 25 µM | inhibition | 50 to 90% |

| SMILES | target or system | assay | conditions | quantity | result |
| --- | --- | --- | --- | --- | --- |
| CN(O)N=Nc1ccc(S(=O)(=O)Nc2nccs2)cc1 | AMY2 | enzyme activity, inhibitor | 240 µg/mL | inhibition | 57.9% |
| Cc1cc(C)c2c(N)c(C(=O)NCc3ccccc3)sc2n1 | NT5E | enzyme activity, inhibitor | 10 µM | inhibition | -22% |
| COc1ccc(C(=O)NCc2cc(O)c(O)c(Br)c2)cc1 | rep papain-like protease | enzyme activity, inhibitor, FRET | 10 µM | inhibition | 97.9% |
| Cc1cc(NS(=O)(=O)c2ccc(N=NN(O)c3ccccc3)cc2)no1 | AMY2 | enzyme activity, inhibitor | 60 µg/mL | inhibition | 26.3% |
| COc1cc(CNC(=O)c2ccccc2)cc(Br)c1OC | rep papain-like protease | enzyme activity, inhibitor, FRET | 10 µM | inhibition | 15.2% |
| COc1cc(-c2cncc3c2CN(C)Cc2cc(N4CCNCC4)ccc2-3)cc(OC)c1OC | Cyclin-dependent kinase 4, with cyclin D3 (CDK4, Homo sapiens, UniProt P11802) | enzyme activity, inhibitor | 1 µM | remaining activity | 125% |
| CNc1ncc2c(/C=C/C(=O)N3CCC(OC)CC3)nn(Cc3cccc(C(F)(F)F)c3)c2n1 | Cyclin-dependent kinase 4, with cyclin D2 (CDK4, Homo sapiens, UniProt P11802) | enzyme activity, inhibitor, radiometric | 1 µM | remaining activity | 101% |
| CCCC(C)C(=O)Nc1ccc(-c2ccc3ncn(CCC)c(=O)c3c2)cn1 (stereo not drawn) | PIP4K2C | binding, competition with immobilised ligand | 0.5 µM | inhibition | 89% |
| COCCOCCOCCNC(=O)c1sc2nc(C)cc(C)c2c1N | NT5E | enzyme activity, inhibitor | 10 µM | inhibition | -1% |
| O=C(Nc1ccc(Br)cc1)c1ccc2c(c1)C(=O)NC2=O | MAOB (Homo sapiens, UniProt P27338) | enzyme activity, inhibitor | 1 µM | inhibition | 15.7% |
| CC(=NNC(=O)c1ccccc1O)c1ccc(Nc2nnc(-c3ccc(Cl)cc3)c3ccccc23)cc1 | HepG2 | cell growth or viability, MTT | 0.625 µM | cell death | 0.143% |
| CC[C@H](C)[C@H](NC(=O)[C@H](CCC(N)=O)NC(=O)[C@H](CC(C)C)NC(=O)[C@H](CCSC)NC(=O)[C@H](CCCCN)NC(=O)[C@H](CO)NC(=O)[C@H](CO)NC(=O)[C@H](CCSC)NC(=O)[C@H](CC(C)C)NC(=O)[C@H](CC(N)=O)NC(=O)[C@@H](NC(=O)[C@@H](NC(=O)[C@H](CO)NC(=O)[C@H](CC(C)C)NC(=O)[C@H](CS)NC(=O)[C@H](CCCNC(=N)N)NC(=O)[C@H](CC(=O)O)NC(=O)[C@H](Cc1c[nH]c2ccccc12)NC(=O)[C@H](Cc1ccccc1)NC(=O)[C@H](C)NC(=O)[C@H](CCC(=O)O)NC(=O)[C@@H](N)CCCCN)C(C)C)[C@@H](C)CC)C(=O)N[C@@H](CC(N)=O)C(=O)N[C@@H](C)C(=O)O | MAPK3 (Homo sapiens, UniProt P27361) | enzyme activity, inhibitor, radiometric | 500 µM | inhibition | 25% |
| N#C[C@@]12C[C@@H]1[C@@H](n1cnc3c(Nc4ccccc4)nc(I)nc31)[C@H](O)[C@@H]2O | SLC6A2 (Homo sapiens, UniProt P23975) | ligand displacement, radioligand | 10 µM | inhibition | 11% |
| O=C(NCc1cc(O)c(O)c(Br)c1)c1cccc(CCl)c1 | rep main protease | enzyme activity, inhibitor, FRET | 10 µM | inhibition | 101% |
| COC(=O)c1ccc(NC(=O)c2sc3nc(C)cc(C)c3c2N)cc1 | NT5E | enzyme activity, inhibitor | 10 µM | inhibition | -32% |
| COc1cc(CNC(=O)c2cccc(OC(C)=O)c2C)cc(Br)c1OC | rep main protease | enzyme activity, inhibitor, FRET | 10 µM | inhibition | 8.43% |
| Cc1cccc(N(O)N=Nc2ccc(S(=O)(=O)Nc3cc(C)on3)cc2)c1 | AMY2 | enzyme activity, inhibitor | 120 µg/mL | inhibition | 36.8% |
| O=C(NCc1cc(O)c(O)c(Br)c1)c1cccc2ccccc12 | rep main protease | enzyme activity, inhibitor, FRET | 10 µM | inhibition | 87.5% |
| CCCN(O)N=Nc1ccc(S(=O)(=O)Nc2onc(C)c2C)cc1 | AMY2 | enzyme activity, inhibitor | 120 µg/mL | inhibition | 47.4% |

Some of these lines once more:
| SMILES | target or system | assay | conditions | quantity | result |
| --- | --- | --- | --- | --- | --- |
| COc1cc(CNC(=O)c2ccccc2)cc(Br)c1OC | rep papain-like protease | enzyme activity, inhibitor, FRET | 10 µM | inhibition | 15.2% |
| COc1cc(-c2cncc3c2CN(C)Cc2cc(N4CCNCC4)ccc2-3)cc(OC)c1OC | Cyclin-dependent kinase 4, with cyclin D3 (CDK4, Homo sapiens, UniProt P11802) | enzyme activity, inhibitor | 1 µM | remaining activity | 125% |
| CNc1ncc2c(/C=C/C(=O)N3CCC(OC)CC3)nn(Cc3cccc(C(F)(F)F)c3)c2n1 | Cyclin-dependent kinase 4, with cyclin D2 (CDK4, Homo sapiens, UniProt P11802) | enzyme activity, inhibitor, radiometric | 1 µM | remaining activity | 101% |
| CCCC(C)C(=O)Nc1ccc(-c2ccc3ncn(CCC)c(=O)c3c2)cn1 (stereo not drawn) | PIP4K2C | binding, competition with immobilised ligand | 0.5 µM | inhibition | 89% |
| COCCOCCOCCNC(=O)c1sc2nc(C)cc(C)c2c1N | NT5E | enzyme activity, inhibitor | 10 µM | inhibition | -1% |
